Published values of several laboratories.
A part holds a random share of what one study measured. Changes are numbered by the printed parent chain.

Series 1 — organism: Saccharomyces cerevisiae; observed: binding; method: yeast competitive growth sequencing; molecule type: peptide; strain: cyclin D1-Cln2 strain; sample: peptide tiling library; reading: direction not given
Molecule	enrichment score
TSPGPVLLHPSPSTTQ	1.68
ALLRRLQDVANDRGSH	2.89
IQKKLRFEDTLEFVGF	-1.04
TSSAQRRLEIPSGGAD	-0.98
LKGRRLVFDN	-0.284
SDSTVTKLDFDLEP	1.21
SPREGHMMDALYAQVK	0.861
KDDDKAWEYEERDRRS	1.39
RDLFDCDFGDLTPLDF	2.37
KPITLDTTDFQESFVT	1.67
QDYERRLLRQIVIQNE	-0.925
RSLKLDGLLEEN	-0.478
KSKHEEEEWTDDDLVE	2.57
ESSTVSEEDYFSSHRD	1.8
VLLKRLQDVVSERANH	3.49
LAKRALKYTD	-1.32
EPKTLFLGAGDFQF	2.37
CFRCLLFSFSGRSGVE	-2.22
GQLVIPLDELTLDTSF	3.09
RVSGLLSWTLSRVLWL	-1.71

Series 2 — method: DHFR PCA, deep sequencing; sample: yeast; added: (+)-ABA 710 µM; relative to: wild-type fitted maximum; reading: higher = stronger binding
Target: ABI1, truncated, D143A, DHFR fusion (Arabidopsis thaliana)
Notes: methotrexate growth selection, single substitutions
Starting sequence: PYL1, truncated, DHFR fusion (Arabidopsis thaliana); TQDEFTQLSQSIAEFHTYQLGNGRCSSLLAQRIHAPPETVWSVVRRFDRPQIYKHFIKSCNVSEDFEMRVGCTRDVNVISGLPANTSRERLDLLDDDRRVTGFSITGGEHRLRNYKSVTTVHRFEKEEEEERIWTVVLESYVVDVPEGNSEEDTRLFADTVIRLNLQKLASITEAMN; partner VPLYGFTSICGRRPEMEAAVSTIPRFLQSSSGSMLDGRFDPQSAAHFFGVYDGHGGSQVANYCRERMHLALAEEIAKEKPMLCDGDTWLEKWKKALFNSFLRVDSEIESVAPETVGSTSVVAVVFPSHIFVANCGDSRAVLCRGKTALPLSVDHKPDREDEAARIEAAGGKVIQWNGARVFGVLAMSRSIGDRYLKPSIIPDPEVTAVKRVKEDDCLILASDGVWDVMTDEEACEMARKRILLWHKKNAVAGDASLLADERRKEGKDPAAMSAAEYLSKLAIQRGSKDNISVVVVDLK
Variant	relative binding score [%]
S87N	-15.4
R155N	82.1
E109I	99
G107Q	99.5
N165L	3.37
T135H	1.43
T135P	15.5
Y18G	94.3
E128R	105
A170W	54.2
P83V	26.9
E139L	91.9
G102Q	89
F15V	83.1
N77R	105
R99H	112

Series 3 — target: NFE2L1, bZIP domain (human); method: DHFR protein complementation; sample: yeast; relative to: wild-type JUN-FOS pair; reading: higher = stronger binding
Notes: single substitutions, most at no-binding floor
Starting sequence: JUN, bZIP domain (human); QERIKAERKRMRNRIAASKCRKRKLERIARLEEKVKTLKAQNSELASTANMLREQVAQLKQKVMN; partner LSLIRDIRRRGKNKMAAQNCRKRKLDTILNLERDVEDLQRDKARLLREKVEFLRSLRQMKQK
Variant	binding fitness
M51W	-1.48 natural log
R53H	-1.52 natural log
R53W	-1.67 natural log
Q55R	-1.38 natural log
Q41S	-1.56 natural log
E33V	-1.47 natural log
L52S	-1.48 natural log
N42K	-1.45 natural log
T37V	-1.26 natural log
Q41V	-1.53 natural log
Q41H	-1.16 natural log
T37G	-1.48 natural log
S47Y	-1.51 natural log
R30K	-1.56 natural log
N42Q	-1.45 natural log
Q55K	-1.48 natural log
A29L	-1.53 natural log
K39H	-1.43 natural log
Q41K	-1.45 natural log
E32K	-1.45 natural log
S47G	-1.43 natural log
A57C	-1.53 natural log
T48E	-1.49 natural log
E32R	-1.43 natural log
E44L	-1.41 natural log

Series 4 — target: UBE2O UBC core domain (UniProt Q9C0C9); method: yeast two-hybrid; sample: yeast; notes: mostly zero background; relative to: not given; reading: higher = stronger interaction
B1: TRIML1 RING domain (UniProt Q8N9V2); chain LMENLREELTCFICLDYFSSPVTTECGHSFCLVCLLRSWEEHNTPLSCPECWRTLEGPHFQS
B2: SH3RF2 RING domain (UniProt Q8TEC5); chain DDLTLLDLLECPVCFEKLDVTAKVLPCQHTFCKPCLQRVFKAHKELRCPECRTPVFSNIEAL
B3: VPS41 RING domain (UniProt P49754); chain KGVLVDEENICESCLSPILPSDAAKPFSVVVFHCRHMFHKECLPMPSMNSAAQFCNICSAKNRGPGSAI
B4: RNF208 RING domain (UniProt Q9H0X6); chain SSAAAGEPLECPTCGHSYNVTQRRPRVLSCLHSVCEQCLQILYESCPKYKFISCPTCRRETVLFTDYG
B5: TRIM5 RING domain (UniProt Q9C035); chain ILVNVKEEVTCPICLELLTQPLSLDCGHSFCQACLTANHKKSMLDKGESSCPVCRISYQPENIRP
B6: TRIM24 RING domain (UniProt O15164); chain EAARLNLLDTCAVCHQNIQSRAPKLLPCLHSFCQRCLPAPQRYLMLPAPMLGSAETPPPVPAPGSPVSGSSPFATQVGVIRCPVCSQECAERHII
B7: RNF111 RING domain (UniProt Q6ZNA4); chain EGTEEDTEEKCTICLSILEEGEDVRRLPCMHLFHQVCVDQWLITNKKCPICRVDIEAQLPSE
B8: TRIM13 RING domain (UniProt O60858); chain MELLEEDLTCPICCSLFDDPRVLPCSHNFCKKCLEGILEGSVRNSLWRPAPFKCPTCRKETSATGINS
B9: RNF38 RING domain (UniProt Q9H0F5); chain PNNHQSEQTLCVVCMCDFESRQLLRVLPCNHEFHAKCVDKWLKANRTCPICRADASEVHRDS
Construct (chain): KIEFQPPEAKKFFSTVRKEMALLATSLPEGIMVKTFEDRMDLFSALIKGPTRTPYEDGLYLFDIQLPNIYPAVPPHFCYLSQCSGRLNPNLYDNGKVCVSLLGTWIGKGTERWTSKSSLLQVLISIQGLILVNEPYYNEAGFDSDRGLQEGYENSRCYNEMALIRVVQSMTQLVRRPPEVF
Molecule	lacZ reporter activity
VEPSEENSKDCVVCQNGTVNWVLLPCRHTCLCDGCVKYFQQCPMCRQFVQESFALC (CGRRF1 RING domain (UniProt Q99675))	0
MPIRALCTICSDFFDHSRDVAAIHCGHTFHLQCLIQWFETAPSRTCPQCRIQVGKRTIIN (TRAIP RING domain (UniProt Q9BWF2))	0
B1 (TRIML1 RING domain)	0
ASLPTSEEDLCPICYAHPISAVFQPCGHKSCKACINQHLMNNKDCFFCKTTIVSVEDWE (RNF123 RING domain (UniProt Q5XPI4))	0
B2 (SH3RF2 RING domain)	0
B3 (VPS41 RING domain)	0
B4 (RNF208 RING domain)	0
B5 (TRIM5 RING domain)	0
DHGAVGQEMCCPICCSEYVKGEVATELPCHHYFHKPCVSIWLQKSGTCPVCRCMFPPPL (PJA1 RING domain (UniProt Q8NG27))	0
FQGDVDEDLICPICSGVLEEPVQAPHCEHAFCNACITQWFSQQQTCPVDRSVVTVAHLRP (RNF41 RING domain (UniProt Q9H4P4))	0
B6 (TRIM24 RING domain)	0
B7 (RNF111 RING domain)	0
GAAPGPEAAECLVCSELALLVLFSPCQHRTVCEECARRMKKCIRCQVVVSKKLRPD (MIB2 RING domain (UniProt Q96AX9))	0
B8 (TRIM13 RING domain)	0
B9 (RNF38 RING domain)	0

Series 5 — method: protein-binding microarray; molecule type: double-stranded DNA, one strand shown; sample: in vitro; tested at: 0.8 µM; notes: whole 60-bp probe, no competitor; reading: higher = stronger binding; all sequences stand within: … GTCTTGATTCGCTTGACGCTGCTG
Target: Centromere-binding protein 1, full length, N-terminal tag (CBF1, Saccharomyces cerevisiae, UniProt P17106, residues 1-351)
UniProt P17106, sequence (whole entry, looked up): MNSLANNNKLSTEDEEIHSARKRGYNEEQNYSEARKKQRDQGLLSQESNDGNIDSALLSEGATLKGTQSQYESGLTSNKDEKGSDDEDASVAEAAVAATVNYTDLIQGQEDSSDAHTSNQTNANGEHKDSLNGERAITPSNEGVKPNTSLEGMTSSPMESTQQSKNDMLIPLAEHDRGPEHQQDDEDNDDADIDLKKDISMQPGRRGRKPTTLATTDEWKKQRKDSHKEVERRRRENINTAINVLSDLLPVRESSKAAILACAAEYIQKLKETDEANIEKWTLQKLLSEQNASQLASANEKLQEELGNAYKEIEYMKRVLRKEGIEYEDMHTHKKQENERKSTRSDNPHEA
Strand	fluorescence intensity [a.u.]
GAAGTAAAACAGTAACACGTTAATCTTTAGAATTAG	513
GAACATTTGCGCGACCACGTGACCCGCTGCGGCTAG	32000
CCTAACTACTATAAATGTGTGACATAGCTTCGTACA	558
CTATTTATAAAATATGACGTCGTAAAAGAAGAATTC	569
GAATTCATGATGTGCCACATGAGTACAGCCGATTAG	541
CTATCTCGAGGTGCCCACATGCAATCTTTACTGTTC	568
CTAAACTACCAATCTCGTGAGATTTTTCATAAGTTC	584
CTAAAAACAAGACATCAGGCCCGCACGTTTCGCTTC	599
GAATTAGATATTACAGACGTGAGGTATCTCTTCTAG	500
CTACGCTTATCGCTTATCGTGCGCCAAAAACCGTTC	521
CTATCCAGGGAGAATCAGCAGAAACGAGACGAATTC	520
GAAGATAATTACTACCATCACCTGCATCAAATTTAG	829
GAAAAAAAATGCAATCACGTTTTCACATTTTTTTAG	2400
CTATCTCCAATTTTTGACATCAGCGATTATGGCTTC	548
GAAGAGGCGGTATGTGACGTGAATATATGCGATTAG	627
CCTAACTACTATAGTGATGTTGTATAGCTTCGTACA	507
GAACTAGAACTTCAATTCACCACGTTCAGGGTATAG	554
CTACCAATTAAGCACCACCTAGTGCGTCTAGTGTTC	505
GAACTGTACACGTATATCGTGACCCGGCGCCAATAG	1150
GAAGCTGATCCGGGTGACACACTACTAATCATTTAG	526
CTAAGTTCATCATTTCACGTGTGCAGCATAGTGTTC	2390
CTATTCCAGGTTGAGCGCGTGGCTTCCTATAATTTC	601
TGTACGAAGCTATCTTACGTGATTATAGTAGTTAGG	528
CTAAAAACATCCGTACATCAGAAGGATTATATGTTC	544
GAACAGACATACTTCTTCGTGATGCGAATTTGATAG	608

Some of these lines once more (series 4):
Molecule	lacZ reporter activity
VEPSEENSKDCVVCQNGTVNWVLLPCRHTCLCDGCVKYFQQCPMCRQFVQESFALC (CGRRF1 RING domain (UniProt Q99675))	0
MPIRALCTICSDFFDHSRDVAAIHCGHTFHLQCLIQWFETAPSRTCPQCRIQVGKRTIIN (TRAIP RING domain (UniProt Q9BWF2))	0
B1 (TRIML1 RING domain)	0
ASLPTSEEDLCPICYAHPISAVFQPCGHKSCKACINQHLMNNKDCFFCKTTIVSVEDWE (RNF123 RING domain (UniProt Q5XPI4))	0
B2 (SH3RF2 RING domain)	0
B3 (VPS41 RING domain)	0
B4 (RNF208 RING domain)	0
B5 (TRIM5 RING domain)	0
